Measured values of several laboratories.
Each numbered part is a random draw from the data of one study; scales do not carry over between parts.

Set 1 — technique: protein-binding microarray; molecule type: double-stranded DNA, one strand shown; sample: in vitro; tested at: 940 nM top; setting: 60-bp whole probe; added: salmon DNA 0.4 mg/ml; reference: random background probes; reading: higher = stronger binding
Target: Interferon regulatory factor 5, full length, phosphomimetic (IRF5, Homo sapiens, UniProt Q13568-2, residues 1-514, S451D/S453D/S456D/S462D)
| Oligonucleotide | fitted relative affinity |
| --- | --- |
| GCCTAGCACTTAGATTCCCGTTTCGATTAGTGCTAGGTCTTGATTCGCTTGACGCTGCTG | 3.67 z-score |
| GCCTAGCACGACGAACTGGGGTTTCGTGACGTGCTAGTCTTGATTCGCTTGACGCTGCTG | 0.753 z-score |
| GCCTAGCACTTAGATCTCAGTATCGATGAGTGCTAGGTCTTGATTCGCTTGACGCTGCTG | 3.71 z-score |
| GCCTAGCACGACGGACTGGGGACCGGGGACGTGCTAGTCTTGATTCGCTTGACGCTGCTG | -0.298 z-score |

Set 2 — technique: protein binding microarray; molecule type: double-stranded DNA, one strand shown; sample: in vitro; tested at: not given; reference: not given; reading: higher = stronger binding
Target: Histone acetyltransferase KAT6A, winged helix 2, GST fusion (KAT6A, Homo sapiens, UniProt Q92794, residues 85-181)
Setting: 8-mer, flanks averaged, mean of 2 arrays, mostly near background
Target sequence (chain): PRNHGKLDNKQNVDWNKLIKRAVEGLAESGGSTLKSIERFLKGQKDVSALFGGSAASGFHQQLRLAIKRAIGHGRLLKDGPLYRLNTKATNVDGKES
| Oligonucleotide | E-score |
| --- | --- |
| AGCCTCGA | 0.0444 |
| ATAGTGAT | -0.101 |
| CTCCGTGA | 0.157 |
| GGAGCAGA | 0.0573 |
| CAGGAGCG | 0.14 |

Set 3 — technique: RNA Bind-n-Seq; molecule type: RNA; sample: in vitro; tested at: 1 µM; setting: whole 134-nt RNA, ends assumed; added: 150 mM KCl; reference: input library; reading: higher = stronger binding
Target: Ras GTPase-activating protein-binding protein 1, C-terminal RGG region (G3BP1, Homo sapiens, UniProt Q13283)
Chain of UniProt Q13283 (whole entry, looked up): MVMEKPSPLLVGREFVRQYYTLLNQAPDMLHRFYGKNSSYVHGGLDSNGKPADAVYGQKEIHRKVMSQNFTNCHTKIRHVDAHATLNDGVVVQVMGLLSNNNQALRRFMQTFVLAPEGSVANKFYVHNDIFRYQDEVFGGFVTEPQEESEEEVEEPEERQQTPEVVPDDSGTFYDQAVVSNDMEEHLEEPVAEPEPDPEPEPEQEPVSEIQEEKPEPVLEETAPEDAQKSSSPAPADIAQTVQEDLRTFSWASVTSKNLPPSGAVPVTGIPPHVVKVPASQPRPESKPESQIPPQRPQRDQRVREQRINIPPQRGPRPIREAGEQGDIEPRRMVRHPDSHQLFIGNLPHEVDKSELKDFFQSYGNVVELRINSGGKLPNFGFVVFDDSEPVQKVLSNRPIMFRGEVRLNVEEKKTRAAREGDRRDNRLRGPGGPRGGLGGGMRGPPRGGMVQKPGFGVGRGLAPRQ
Constant ends, left off below: GGGAGUUCUACAGUCCGACGAUC … UGGAAUUCUCGGGUGUCAAGG
| Oligonucleotide | log2 enrichment |
| --- | --- |
| CCUCAAGUCCUGUGCUACACAUCGUAUGUACCGAAUCGGGGAGGGAGGAGGGGAAAGUAUUAUGUUACGCCGUUCGGAUCUGCACUUCCA | 0.906 |
| AGUCCUGUGCUACACAUCGUAUGUACCGAAUCGGGGAGGGGUUUUUUUGGGGAGGGGAAAGUAUUAUGUUACGCCGUUCGGAUCUGCACU | 2.2 |
| UAACUUUAGAGGAGGAUCCGAUGGAUAUGGCAGUGGACGUGGAUUUGGGGAUGGCUAUAAUGGGUAUGGAGGAGGACCUGGAGGUGGCAA | -1.22 |
| CCUGUGCUACACAUCGUAUGUACCGAAUCGGGGUUUUUUGGGGUUUUUUGGGUUUUUUGGAAAGUAUUAUGUUACGCCGUUCGGAUCUGC | -1.16 |
| UCCUGUGCUACACAUCGUAUGUACCGAAUCGGGGAAAGGGGUUUUUGGGGAAAAAGGGGAAAGUAUUAUGUUACGCCGUUCGGAUCUGCA | 1.44 |

Single results of other studies
| Molecule | target | assay | system | conditions | how to read | endpoint | result |
| --- | --- | --- | --- | --- | --- | --- | --- |
| PhoQ, residues 284 288 289 292 302 303 NLGVHL | PhoP, residues 12 14 15 18 19 TTLRV (Escherichia coli, UniProt P23836) | Sort-seq, refers to: YFP reporter | E. coli | PhoQ-PhoP variant library, added: 10 µM Mg2+ | reference: high Mg2+ state, higher = stronger signaling | fold induction | 12.9 |

Some of these lines once more (set 1):
| Oligonucleotide | fitted relative affinity |
| --- | --- |
| GCCTAGCACGACGGACTGGGGACCGGGGACGTGCTAGTCTTGATTCGCTTGACGCTGCTG | -0.298 z-score |
